Experimental data pooled from the literature.
Protocols differ between the studies behind these lines. ± marks the error that the study gave.

SMILES	organism	test	test system	setting	EC50
CC(=O)Oc1ccc(Cn2ccc(=O)[nH]c2=O)cc1C1OC(c2cccc(Cl)c2)=NN1C(C)=O (centres unmarked)	human cytomegalovirus	cytopathic effect	HEL fibroblasts, Davis	–	> 100000 nM
CCCCCCCCCC(=O)OCC1OC(n2cc(C)c(=O)[nH]c2=O)CC1N(C)C (centres unmarked)	Human alphaherpesvirus 1	cytopathic effect	HEL	–	> 230 nM
O=C(CC12CC3CC(CC(C3)C1)C2)NCCOCC(=O)NC1CCN(S(=O)(=O)c2cc(C(=O)Nc3cc(F)c(F)c(F)c3)ccc2F)CC1	Hepatitis B virus	viral replication, qPCR, measured: HBV DNA	HepAD38	6 days	460 nM
CN(C)CCNC(=O)c1cc(-c2ccccc2)nc2ccccc12	Enterovirus A71	cytopathic effect	RD, Tainan/4643/98	–	4200 nM
O=C(CC12CC3CC(CC(C3)C1)C2)NC12CCC(C(=O)NC3CCN(S(=O)(=O)c4cc(C(=O)Nc5cc(F)c(F)c(F)c5)ccc4F)CC3)(CC1)CC2	Hepatitis B virus	viral replication, qPCR, measured: HBV DNA	HepAD38	4 days	560 nM
C=C1C(=O)O[C@H]2C[C@H](C)C(/C=C/C(C)=O)=CC[C@H]12	Reovirus 1	viral replication	Vero	–	> 20000 nM
CC(=O)Oc1ccc(Cn2nc(C)c(=O)[nH]c2=O)cc1C1OC(c2cccc(Cl)c2)=NN1C(C)=O (centres unmarked)	human cytomegalovirus	cytopathic effect	HEL fibroblasts, AD-169	–	> 20000 nM
C1CCCCCC2(CCCCC1)OOCCCOO2	hepatitis E virus	replicon RNA replication, NanoLuc reporter	PLC/PRF/5	72 h	9200 nM
CC(=O)Oc1ccc(Cn2ccc(=O)[nH]c2=O)cc1C1OC(c2ccc(Cl)cc2)=NN1C(C)=O (centres unmarked)	human cytomegalovirus	cytopathic effect	HEL fibroblasts, AD-169	–	> 20000 nM
O=C(CC1CCN(C(=O)CC23CC4CC(CC(C4)C2)C3)CC1)NC1CCN(S(=O)(=O)c2cc(C(=O)Nc3cc(F)c(F)c(F)c3)ccc2F)CC1	Hepatitis B virus	viral replication, qPCR, measured: HBV DNA	HepAD38	4 days	650 nM
CC(=O)Oc1ccc(Cn2cc(F)c(=O)[nH]c2=O)cc1C1OC(c2ccccc2)=NN1C(C)=O (centres unmarked)	human cytomegalovirus	cytopathic effect	HEL fibroblasts, Davis	–	> 100000 nM
O=C(Nc1cc(F)c(F)c(F)c1)c1ccc(F)c(S(=O)(=O)N2CCC(NC(=O)c3ccc(N4CCN(C(=O)CC56CC7CC(CC(C7)C5)C6)CC4)cc3)CC2)c1	Hepatitis B virus	viral replication, qPCR, measured: HBV DNA	HepAD38	4 days	930 nM
CC(=Nc1ccccc1)c1c(C)cc(=O)n(O)c1O	Hepatitis B virus	viral replication, inhibitor, qPCR	HepDES19	72 h	2200 nM
O=C1/C(=N\NC(=S)NN=Cc2cccs2)c2ccccc2N1Cc1ccccc1	Punta Toro virus	viral cytopathogenicity	Vero	–	> 20000 nM
O=C(CC12CC3CC(CC(C3)C1)C2)NC1CCN(S(=O)(=O)c2cc(C(=O)Nc3cc(F)c(F)c(F)c3)ccc2F)CC1	Hepatitis B virus	viral replication, qPCR, measured: HBV DNA	HepAD38	6 days	400 nM
O=C(NCc1cc(Cl)ccc1F)c1cn(Cc2ccc(F)cc2)cc(O)c1=O	human cytomegalovirus	viral replication, GFP reporter virus	HFF	168 h	700 ± 190 nM
CCC1c2cc(OC)c(O)cc2C(c2ccc(O)c(OC)c2)C1C (centres unmarked)	Spodoptera frugiperda	antifeedant activity, no-choice test	larvae, Zea mays	–	2530 µg/mL
Nc1ncnc2c1c(Cl)cn2[C@@H]1O[C@H](CO)[C@@H](O)[C@H]1O	Trypanosoma evansi	parasite growth, resazurin	AnTat 3.3	48 h plus 24 h resazurin	620 ± 60 nM

SMILES	organism	test	test system	setting	EC50
CCCC[C@@H](O)C[C@@H](C)C[C@H](NC(=O)[C@@H]1C[C@H](C)CN1C(=O)/C=C/[C@@H](C)CC)C(=O)N[C@H](C(=O)NC(C)(C)C(=O)N[C@@H](CC(C)C)C(=O)N[C@@H](CC(C)C)C(=O)NC(C)(C)C(=O)NC(C)(C)C(=O)NCCC(=O)N[C@@H](C)CN(C)C)[C@H](O)C(C)C	Trypanosoma cruzi	amastigote replication, high-content imaging	C2C12, CA-I/72	72 h	2.8 ± 1.4 nM
CC(=O)Oc1ccc(Cn2cc(C)c(=O)[nH]c2=O)cc1C1OC(c2ccccc2)=NN1C(C)=O (centres unmarked)	human cytomegalovirus	cytopathic effect	HEL fibroblasts, AD-169	–	> 100000 nM
CC1(C)OB(c2ccc(CNC(=O)c3cn(Cc4ccc(F)cc4)cc(O)c3=O)cc2)OC1(C)C	human cytomegalovirus	viral replication, GFP reporter virus	HFF	168 h	2300 ± 50 nM
CC(=O)CCC1C(=O)NC(C(C)C)C(=O)NC(Cc2cc(O)cc(F)c2)C(=O)N2CCCC(N2)C(=O)OC(C(C)=CC=CC(=O)N2CCCCO2)CC=CC=CC(O)C(C)C1O (centres unmarked)	hepatitis C virus genotype 2a JFH-1	measured: HCV RNA	Huh-7 replicon	72 h	21 ± 3 nM
COc1ccccc1-c1n[nH]c2nc(N[C@H]3CC[C@H](NS(=O)(=O)CC(C)C)CC3)ncc12	Leishmania donovani	–	LdBOB CRK12 single knock-out, promastigotes	–	0.76 ± 0.004 nM
CC(=O)CCC1C(=O)NC(C(C)C)C(=O)NC(Cc2cccc(O)c2)C(=O)N2CCCC(N2)C(=O)OC(C(C)=CC=CC(=O)N2CCCCO2)CC=CC=CC(O)C(C)C1O (centres unmarked)	hepatitis C virus genotype 1a H77	measured: HCV RNA	Huh-7 replicon	72 h	63 ± 4 nM
CC(=O)Oc1ccc(Cn2ccc(=O)[nH]c2=O)cc1C1OC(c2ccccc2)=NN1C(C)=O (centres unmarked)	human cytomegalovirus	cytopathic effect	HEL fibroblasts, Davis	–	> 100000 nM
O=C(Nc1cc(F)c(F)c(F)c1)c1ccc(F)c(S(=O)(=O)N2CCC(NC(=O)C3CCC4(CC3)CCN(C(=O)CC35CC6CC(CC(C6)C3)C5)CC4)CC2)c1	Hepatitis B virus	viral replication, qPCR, measured: HBV DNA	HepAD38	4 days	2710 nM
C/C=C/c1ccc(OC(C)=O)c(OC)c1	Spodoptera frugiperda	antifeedant activity, no-choice test	larvae, Zea mays	–	< 210 µg/mL
O=C(NCc1cc(F)ccc1F)c1cn(Cc2ccc(F)cc2)cc(O)c1=O	human cytomegalovirus	viral replication, GFP reporter virus	HFF	168 h	1400 ± 50 nM
CC(=O)Oc1ccc(Cn2cc(F)c(=O)[nH]c2=O)cc1C1OC(c2ccc(Cl)cc2)=NN1C(C)=O (centres unmarked)	human cytomegalovirus	cytopathic effect	HEL fibroblasts, AD-169	–	> 20000 nM
C=CCc1ccc(OCc2ccccc2)c(OC)c1	Spodoptera frugiperda	antifeedant activity, no-choice test	larvae, Zea mays	–	626 µg/mL
O=C(Nc1cc(F)c(F)c(F)c1)c1ccc(F)c(S(=O)(=O)N2CCC(NC(=O)C3CN(C(=O)CC45CC6CC(CC(C6)C4)C5)C3)CC2)c1	Hepatitis B virus	viral replication, qPCR, measured: HBV DNA	HepAD38	4 days	440 nM
O=C(Cc1csc2nc(-c3ccc(Br)cc3)cn12)NN=C1CCCC1	Coxsackie B4 virus	viral cytopathicity, microscopy	Vero	–	> 100 µg/mL
CCCCCCC(CC=CCCCCCCCC(=O)OCCOCn1cnc2c(=O)[nH]c(N)nc21)OC(=O)CCCCC1SCC2NC(=O)NC21 (centres unmarked)	human cytomegalovirus	viral replication, plaque reduction	HFF, AD169	–	70100 nM
CC(=O)Oc1ccc(Cn2cc(C)c(=O)[nH]c2=O)cc1C1OC(c2cccc(Cl)c2)=NN1C(C)=O (centres unmarked)	human cytomegalovirus	cytopathic effect	HEL fibroblasts, Davis	–	> 20000 nM
Cc1cn(C2CC(N(C)C)C(CO)O2)c(=O)[nH]c1=O (centres unmarked)	Punta Toro virus	viral replication	Vero	–	> 370 nM
